# Assay results gathered from unrelated publications.
# Numbered parts are unrelated; each lists some results of a single study.
# Sequence of UniProt P23975 (whole entry, looked up): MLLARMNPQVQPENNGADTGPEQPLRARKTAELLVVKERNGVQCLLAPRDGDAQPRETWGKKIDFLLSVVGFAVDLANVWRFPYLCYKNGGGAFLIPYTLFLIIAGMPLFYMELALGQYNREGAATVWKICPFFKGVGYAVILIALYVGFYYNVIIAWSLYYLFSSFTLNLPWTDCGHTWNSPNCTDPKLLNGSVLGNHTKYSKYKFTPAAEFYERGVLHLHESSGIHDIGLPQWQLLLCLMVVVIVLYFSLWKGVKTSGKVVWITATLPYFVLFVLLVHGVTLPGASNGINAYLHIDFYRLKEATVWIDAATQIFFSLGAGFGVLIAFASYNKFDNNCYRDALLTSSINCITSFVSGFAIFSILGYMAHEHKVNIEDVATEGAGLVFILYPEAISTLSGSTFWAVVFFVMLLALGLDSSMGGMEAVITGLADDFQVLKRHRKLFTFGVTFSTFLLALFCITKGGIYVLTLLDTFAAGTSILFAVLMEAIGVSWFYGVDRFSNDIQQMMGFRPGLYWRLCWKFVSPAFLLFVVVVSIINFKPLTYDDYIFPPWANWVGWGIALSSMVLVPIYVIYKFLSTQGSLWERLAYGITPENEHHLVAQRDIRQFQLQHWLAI
# Sequence of UniProt P11229 (whole entry, looked up): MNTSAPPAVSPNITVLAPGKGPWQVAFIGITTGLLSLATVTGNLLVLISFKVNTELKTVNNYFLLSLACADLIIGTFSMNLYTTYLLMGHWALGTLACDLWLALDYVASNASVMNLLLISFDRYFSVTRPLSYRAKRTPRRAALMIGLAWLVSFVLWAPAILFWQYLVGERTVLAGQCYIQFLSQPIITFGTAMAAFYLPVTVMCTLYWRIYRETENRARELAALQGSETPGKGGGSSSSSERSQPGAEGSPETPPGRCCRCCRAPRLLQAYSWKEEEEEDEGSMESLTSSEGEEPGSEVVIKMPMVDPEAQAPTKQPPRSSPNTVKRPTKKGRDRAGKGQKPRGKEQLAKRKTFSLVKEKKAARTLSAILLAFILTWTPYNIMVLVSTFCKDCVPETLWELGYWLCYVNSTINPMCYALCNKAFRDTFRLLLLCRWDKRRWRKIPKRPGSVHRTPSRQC
# Sequence of UniProt P20309 (whole entry, looked up): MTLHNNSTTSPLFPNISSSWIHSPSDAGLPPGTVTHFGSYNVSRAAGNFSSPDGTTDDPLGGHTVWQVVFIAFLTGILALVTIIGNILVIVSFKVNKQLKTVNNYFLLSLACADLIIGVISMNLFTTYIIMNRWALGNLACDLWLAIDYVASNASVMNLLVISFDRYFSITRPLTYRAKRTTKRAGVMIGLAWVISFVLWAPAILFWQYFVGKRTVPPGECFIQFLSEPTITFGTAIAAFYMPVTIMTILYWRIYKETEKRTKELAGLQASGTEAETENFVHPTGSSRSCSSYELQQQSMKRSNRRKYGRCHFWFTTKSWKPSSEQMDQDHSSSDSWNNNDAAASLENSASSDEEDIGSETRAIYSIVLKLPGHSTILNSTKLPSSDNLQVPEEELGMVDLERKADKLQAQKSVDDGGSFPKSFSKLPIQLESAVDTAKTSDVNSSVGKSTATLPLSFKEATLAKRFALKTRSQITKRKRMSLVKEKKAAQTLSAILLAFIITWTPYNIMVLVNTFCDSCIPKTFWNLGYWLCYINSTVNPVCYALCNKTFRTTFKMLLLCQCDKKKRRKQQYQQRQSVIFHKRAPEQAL
# Sequence of UniProt P41145 (whole entry, looked up): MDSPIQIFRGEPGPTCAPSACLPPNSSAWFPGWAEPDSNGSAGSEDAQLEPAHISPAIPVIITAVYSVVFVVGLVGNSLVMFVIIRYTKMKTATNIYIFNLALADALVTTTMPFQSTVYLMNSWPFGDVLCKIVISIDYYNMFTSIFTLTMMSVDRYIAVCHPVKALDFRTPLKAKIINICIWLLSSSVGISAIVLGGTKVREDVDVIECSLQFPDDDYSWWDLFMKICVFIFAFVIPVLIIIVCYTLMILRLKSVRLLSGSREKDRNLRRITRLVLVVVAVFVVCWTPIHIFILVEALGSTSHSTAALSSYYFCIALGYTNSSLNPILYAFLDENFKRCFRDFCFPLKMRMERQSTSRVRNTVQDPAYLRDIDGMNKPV
# Sequence of UniProt Q01959 (whole entry, looked up): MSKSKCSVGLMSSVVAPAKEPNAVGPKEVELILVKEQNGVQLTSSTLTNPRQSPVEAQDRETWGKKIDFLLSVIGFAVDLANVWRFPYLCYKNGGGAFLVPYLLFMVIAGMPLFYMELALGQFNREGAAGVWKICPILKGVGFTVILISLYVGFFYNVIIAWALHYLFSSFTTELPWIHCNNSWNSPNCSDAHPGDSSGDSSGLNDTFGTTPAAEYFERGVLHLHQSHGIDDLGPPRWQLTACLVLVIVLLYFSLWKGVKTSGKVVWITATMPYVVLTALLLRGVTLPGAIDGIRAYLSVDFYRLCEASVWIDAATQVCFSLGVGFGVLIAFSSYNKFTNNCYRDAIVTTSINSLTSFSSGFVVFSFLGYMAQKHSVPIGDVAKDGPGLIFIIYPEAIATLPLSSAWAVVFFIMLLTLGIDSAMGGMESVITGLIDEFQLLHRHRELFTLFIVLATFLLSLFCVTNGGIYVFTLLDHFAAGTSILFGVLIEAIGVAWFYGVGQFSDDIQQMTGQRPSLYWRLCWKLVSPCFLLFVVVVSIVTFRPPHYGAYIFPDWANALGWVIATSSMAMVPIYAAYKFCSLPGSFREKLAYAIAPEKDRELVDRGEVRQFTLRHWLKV

# Set 1
# Organism: Sarcocystis neurona
# Read-out: parasite growth
# Concentration: 10 µM
# Setting: secondary screen
SMILES,inhibition [%]
CCC1(c2ccc(N)cc2)CCC(=O)NC1=O (stereo not shown),-30.8
CN1C(=O)CN=C(c2ccccc2)c2cc(Cl)ccc21,-27.7
O=C1CC[C@@]2(O)[C@H]3Cc4ccc(O)c5c4[C@@]2(CCN3CC2CC2)[C@H]1O5,-38.4
COc1ccc2[nH]cc(CCN)c2c1,-33.2

# Set 2
# Cell line: HEK-293T/ACE2
# Concentration: concentration not given
# Time: 16 (unit not given)
# Reference: vehicle
Compound,viability
CC(=O)N(O)CCCCCNC(=O)CCC(=O)N(O)CCCCCNC(=O)CCC(=O)N(O)CCCCCN,100%
CCN(CC)CCOC(=O)c1ccc(N)cc1,86.6%
CCCCCCCC(=O)N[C@H](CN1CCCC1)[C@H](O)c1ccc2c(c1)OCCO2,94.5%
CCCCC1=NC2(CCCC2)C(=O)N1Cc1ccc(-c2ccccc2-c2nnn[nH]2)cc1,99.9%
CC(CCc1ccccc1)NCC(O)c1ccc(O)c(C(N)=O)c1 (stereo not shown),101%
C[N+]1(C)[C@@H]2C[C@@H](OC(=O)[C@H](CO)c3ccccc3)C[C@H]1[C@@H]1O[C@@H]12,103%
Cc1nc2n(c(=O)c1CCN1CCC(c3noc4cc(F)ccc34)CC1)CCCC2O (stereo not shown),95.7%
CCCCc1nc(Cl)c(CO)n1Cc1ccc(-c2ccccc2-c2nn[nH]n2)cc1,99.5%
C=C1C[C@@H]2[C@H](CC[C@]3(C)C(=O)CC[C@@H]23)[C@@]2(C)C=CC(=O)C=C12,101%
Cc1cnc(C(=O)N[C@H]2CCCCC/C=C\[C@@H]3C[C@@]3(C(=O)NS(=O)(=O)C3CC3)NC(=O)[C@@H]3C[C@@H](Oc4nc5ccccc5c5ccccc45)CN3C2=O)cn1,97.4%
CC(C)C(=O)Nc1ccc([N+](=O)[O-])c(C(F)(F)F)c1,98.3%
CCCCOc1ccc(OCCCN2CCOCC2)cc1,100%
CN(C)c1ccc(C(=C2C=CC(=[N+](C)C)C=C2)c2ccc(N(C)C)cc2)cc1,83.6%
CCCCC(=O)O[C@]1(C(=O)CO)CC[C@H]2[C@@H]3CCC4=CC(=O)CC[C@]4(C)[C@H]3[C@@H](O)C[C@@]21C,102%

# Set 3
# Cell line: A-375
# Concentration: 100 µM
# Time: 36 h
Compound,viability [%]
CC(C)c1c(CN(C)C(C)Cc2ccccc2)n(C)n(-c2ccccc2)c1=O (stereo not shown),79.6
C[C@]12CC[C@H](O)CC1=CC[C@@H]1[C@@H]2CC[C@]2(C)C(=O)CC[C@@H]12,43.9
COc1cc2c(cc1OC)C13CCN4CC5=CCOC6CC(=O)N2C1C6C5CC43 (stereo not shown),96.4
COc1cccc2c1cc([N+](=O)[O-])c1c(C(=O)O)cc3c(c12)OCO3,42.7
C#C[C@]1(O)CC[C@H]2[C@@H]3CCC4=CC(=O)CC[C@]4(C)[C@H]3CC[C@@]21C,80.1

# Set 4
# SMILES: O=C(NCc1ncc(C(F)(F)F)cc1Cl)c1ccc2c(c1)C1(CCS(=O)(=O)CC1)[C@H](C1CC1)N2S(=O)(=O)c1ccc(F)cc1
# Concentration: 10 µM
target,assay,inhibition [%]
"SLC6A2 (Homo sapiens, UniProt P23975)",cell-free assay,1.03
"CHRM1 (Homo sapiens, UniProt P11229)",ligand displacement,-2.96
"OPRK1 (Homo sapiens, UniProt P41145)",ligand displacement,14.4
"SLC6A3 (Homo sapiens, UniProt Q01959)",cell-free assay,-20.2
"CHRM3 (Homo sapiens, UniProt P20309)",ligand displacement,18.1
